Measured values of several laboratories.
Lines come from different studies, so protocols differ. ± marks the error that the study gave.
SULT2A1: Sulfotransferase 2A1 (SULT2A1, Homo sapiens, UniProt Q06520)
UniProt Q06520, sequence (whole entry, looked up): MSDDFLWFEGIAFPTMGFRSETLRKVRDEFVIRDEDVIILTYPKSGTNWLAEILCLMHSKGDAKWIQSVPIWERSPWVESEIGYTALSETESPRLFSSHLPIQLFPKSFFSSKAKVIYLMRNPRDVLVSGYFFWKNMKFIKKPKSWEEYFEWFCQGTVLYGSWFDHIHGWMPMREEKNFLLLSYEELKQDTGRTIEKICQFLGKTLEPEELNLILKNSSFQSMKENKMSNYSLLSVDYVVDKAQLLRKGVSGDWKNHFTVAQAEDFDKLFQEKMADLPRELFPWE
Dual specificity protein phosphatase 5: Dual specificity protein phosphatase 5 (Homo sapiens, UniProt Q16690)
UniProt Q16690, sequence (whole entry, looked up): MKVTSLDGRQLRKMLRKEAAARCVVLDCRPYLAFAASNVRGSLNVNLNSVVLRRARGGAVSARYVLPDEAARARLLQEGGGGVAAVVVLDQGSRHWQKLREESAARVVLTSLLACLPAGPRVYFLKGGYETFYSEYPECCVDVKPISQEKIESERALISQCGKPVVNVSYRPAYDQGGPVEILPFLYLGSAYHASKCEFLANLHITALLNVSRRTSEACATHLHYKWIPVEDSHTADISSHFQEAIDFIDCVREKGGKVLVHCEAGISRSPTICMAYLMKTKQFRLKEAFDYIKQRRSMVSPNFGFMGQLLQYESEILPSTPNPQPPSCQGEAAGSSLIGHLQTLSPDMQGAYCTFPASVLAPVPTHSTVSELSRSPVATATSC
Proteasome component C5/PSMB5 chymotrypsin-like site: Proteasome component C5/PSMB5, chymotrypsin-like site (Homo sapiens, UniProt P20618+P28074)
UniProt P28074, sequence (whole entry, looked up): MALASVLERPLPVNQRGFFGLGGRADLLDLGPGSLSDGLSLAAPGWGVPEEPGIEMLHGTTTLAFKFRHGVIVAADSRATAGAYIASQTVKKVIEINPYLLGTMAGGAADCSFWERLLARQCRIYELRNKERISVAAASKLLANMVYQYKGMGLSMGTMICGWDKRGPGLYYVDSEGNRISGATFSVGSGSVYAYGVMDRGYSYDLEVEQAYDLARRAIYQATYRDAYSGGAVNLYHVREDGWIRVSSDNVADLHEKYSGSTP
ALPL: Alkaline phosphatase, tissue-nonspecific isozyme (ALPL, Homo sapiens, UniProt P05186)
UniProt P05186, sequence (whole entry, looked up): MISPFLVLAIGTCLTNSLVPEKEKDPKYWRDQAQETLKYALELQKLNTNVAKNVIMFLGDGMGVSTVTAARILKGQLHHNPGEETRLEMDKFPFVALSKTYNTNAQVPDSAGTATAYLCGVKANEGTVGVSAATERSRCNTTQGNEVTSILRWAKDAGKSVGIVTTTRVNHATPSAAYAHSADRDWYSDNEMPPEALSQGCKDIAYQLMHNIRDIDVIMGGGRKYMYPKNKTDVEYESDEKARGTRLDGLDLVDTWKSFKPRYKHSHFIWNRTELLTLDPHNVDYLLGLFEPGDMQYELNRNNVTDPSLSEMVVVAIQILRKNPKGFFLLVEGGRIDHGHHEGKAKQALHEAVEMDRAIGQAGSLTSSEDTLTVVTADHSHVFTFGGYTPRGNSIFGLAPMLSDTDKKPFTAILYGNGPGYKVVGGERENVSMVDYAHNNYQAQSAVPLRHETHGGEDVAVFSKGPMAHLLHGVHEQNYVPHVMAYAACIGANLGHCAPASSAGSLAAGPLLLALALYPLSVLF
Genome polyprotein NS2B-NS3 protease: Genome polyprotein, NS2B-NS3 protease (ZIKV, UniProt A0A024B7W1)
UniProt A0A024B7W1, sequence (whole entry, looked up): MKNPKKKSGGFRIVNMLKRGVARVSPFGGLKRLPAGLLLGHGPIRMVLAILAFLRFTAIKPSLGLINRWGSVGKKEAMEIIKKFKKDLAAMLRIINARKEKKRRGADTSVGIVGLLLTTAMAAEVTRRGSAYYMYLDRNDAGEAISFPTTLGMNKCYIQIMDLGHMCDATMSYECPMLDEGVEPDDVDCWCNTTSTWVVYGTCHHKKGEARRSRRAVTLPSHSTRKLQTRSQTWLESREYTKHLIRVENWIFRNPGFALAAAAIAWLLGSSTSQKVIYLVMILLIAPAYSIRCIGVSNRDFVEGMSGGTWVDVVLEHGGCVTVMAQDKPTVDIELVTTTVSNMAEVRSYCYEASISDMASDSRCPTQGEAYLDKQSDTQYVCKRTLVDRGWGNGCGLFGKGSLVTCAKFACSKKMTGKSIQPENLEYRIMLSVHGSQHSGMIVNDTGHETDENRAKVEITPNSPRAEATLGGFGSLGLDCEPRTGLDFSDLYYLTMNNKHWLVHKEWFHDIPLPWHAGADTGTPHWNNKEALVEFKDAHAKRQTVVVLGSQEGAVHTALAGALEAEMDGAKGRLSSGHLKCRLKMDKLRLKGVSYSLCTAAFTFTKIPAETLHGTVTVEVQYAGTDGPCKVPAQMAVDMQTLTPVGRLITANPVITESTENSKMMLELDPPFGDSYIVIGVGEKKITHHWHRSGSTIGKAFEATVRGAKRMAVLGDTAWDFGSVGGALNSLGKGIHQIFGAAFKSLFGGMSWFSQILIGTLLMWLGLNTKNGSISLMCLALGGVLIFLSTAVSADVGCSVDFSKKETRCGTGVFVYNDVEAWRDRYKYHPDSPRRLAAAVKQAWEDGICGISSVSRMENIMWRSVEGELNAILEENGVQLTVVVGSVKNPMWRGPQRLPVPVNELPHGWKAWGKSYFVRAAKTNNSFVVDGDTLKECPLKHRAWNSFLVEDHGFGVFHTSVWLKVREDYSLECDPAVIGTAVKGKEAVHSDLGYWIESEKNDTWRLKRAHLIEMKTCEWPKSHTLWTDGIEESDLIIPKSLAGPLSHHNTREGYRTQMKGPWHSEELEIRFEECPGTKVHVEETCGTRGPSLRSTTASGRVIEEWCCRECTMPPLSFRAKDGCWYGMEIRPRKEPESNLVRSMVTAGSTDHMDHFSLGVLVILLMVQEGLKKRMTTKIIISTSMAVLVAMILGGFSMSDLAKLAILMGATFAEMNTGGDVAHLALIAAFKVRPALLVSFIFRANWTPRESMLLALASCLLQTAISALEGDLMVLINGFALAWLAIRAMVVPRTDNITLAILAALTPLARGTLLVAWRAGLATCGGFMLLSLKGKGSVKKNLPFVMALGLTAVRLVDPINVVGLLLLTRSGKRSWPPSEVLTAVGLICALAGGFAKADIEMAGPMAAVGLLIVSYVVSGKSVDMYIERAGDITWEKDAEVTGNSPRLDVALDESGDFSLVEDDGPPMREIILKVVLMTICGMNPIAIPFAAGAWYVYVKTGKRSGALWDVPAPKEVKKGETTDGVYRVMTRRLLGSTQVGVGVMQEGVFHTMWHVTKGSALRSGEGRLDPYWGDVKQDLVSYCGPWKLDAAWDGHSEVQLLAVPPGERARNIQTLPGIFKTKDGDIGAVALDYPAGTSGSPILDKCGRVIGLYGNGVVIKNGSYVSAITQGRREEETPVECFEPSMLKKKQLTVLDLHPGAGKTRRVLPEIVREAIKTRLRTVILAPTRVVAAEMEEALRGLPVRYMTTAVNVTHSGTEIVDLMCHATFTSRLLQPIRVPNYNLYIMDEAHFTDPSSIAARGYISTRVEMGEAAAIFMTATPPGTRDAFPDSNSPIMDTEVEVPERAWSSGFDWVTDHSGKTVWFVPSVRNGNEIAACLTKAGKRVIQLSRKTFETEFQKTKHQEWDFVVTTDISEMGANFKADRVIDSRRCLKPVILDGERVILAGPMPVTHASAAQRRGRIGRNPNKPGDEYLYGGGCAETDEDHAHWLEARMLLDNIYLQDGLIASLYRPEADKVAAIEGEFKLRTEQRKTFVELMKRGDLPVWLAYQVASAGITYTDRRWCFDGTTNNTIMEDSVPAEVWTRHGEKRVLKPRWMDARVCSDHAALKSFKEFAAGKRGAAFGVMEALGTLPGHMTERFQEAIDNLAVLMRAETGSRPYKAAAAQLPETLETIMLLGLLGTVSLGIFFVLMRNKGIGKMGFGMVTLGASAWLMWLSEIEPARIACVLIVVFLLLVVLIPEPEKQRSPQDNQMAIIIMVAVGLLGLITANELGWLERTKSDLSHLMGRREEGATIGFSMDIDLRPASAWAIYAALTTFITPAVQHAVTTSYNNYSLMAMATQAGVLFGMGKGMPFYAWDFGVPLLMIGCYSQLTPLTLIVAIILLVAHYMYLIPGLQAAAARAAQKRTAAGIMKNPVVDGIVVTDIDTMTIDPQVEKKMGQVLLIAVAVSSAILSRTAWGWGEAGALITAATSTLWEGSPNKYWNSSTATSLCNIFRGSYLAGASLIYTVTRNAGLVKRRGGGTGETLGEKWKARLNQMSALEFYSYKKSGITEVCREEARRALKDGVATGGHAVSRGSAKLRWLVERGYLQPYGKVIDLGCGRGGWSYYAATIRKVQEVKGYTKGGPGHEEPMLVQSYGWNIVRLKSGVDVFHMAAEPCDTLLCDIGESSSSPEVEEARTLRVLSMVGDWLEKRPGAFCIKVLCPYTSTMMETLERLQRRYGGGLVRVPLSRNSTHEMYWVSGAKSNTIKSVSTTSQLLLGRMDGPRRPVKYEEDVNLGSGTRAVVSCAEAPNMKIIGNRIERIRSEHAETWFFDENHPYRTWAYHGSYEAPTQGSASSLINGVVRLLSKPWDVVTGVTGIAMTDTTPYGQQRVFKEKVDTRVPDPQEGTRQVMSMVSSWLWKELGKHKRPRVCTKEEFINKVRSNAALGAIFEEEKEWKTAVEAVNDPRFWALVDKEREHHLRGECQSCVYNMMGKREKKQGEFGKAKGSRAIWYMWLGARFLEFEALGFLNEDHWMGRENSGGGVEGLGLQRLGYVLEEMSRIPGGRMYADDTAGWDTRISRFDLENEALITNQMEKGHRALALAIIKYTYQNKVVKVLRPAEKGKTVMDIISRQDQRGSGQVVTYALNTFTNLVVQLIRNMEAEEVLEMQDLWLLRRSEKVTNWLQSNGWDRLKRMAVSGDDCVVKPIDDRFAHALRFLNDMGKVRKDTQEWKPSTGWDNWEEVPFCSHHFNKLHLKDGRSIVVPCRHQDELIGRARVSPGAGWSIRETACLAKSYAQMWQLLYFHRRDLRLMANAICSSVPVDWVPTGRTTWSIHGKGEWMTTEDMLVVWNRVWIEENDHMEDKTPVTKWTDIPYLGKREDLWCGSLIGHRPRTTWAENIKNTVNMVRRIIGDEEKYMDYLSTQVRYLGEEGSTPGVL
UniProt Q2FV99, sequence (whole entry, looked up): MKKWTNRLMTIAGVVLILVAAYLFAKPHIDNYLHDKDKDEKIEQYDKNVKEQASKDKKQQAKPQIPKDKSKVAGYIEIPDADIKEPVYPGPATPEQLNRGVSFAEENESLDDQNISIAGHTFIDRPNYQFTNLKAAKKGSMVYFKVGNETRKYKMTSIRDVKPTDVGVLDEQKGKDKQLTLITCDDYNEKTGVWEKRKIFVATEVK

SMILES	target or system	assay	system	setting	measurement	result
Oc1ccc(-c2ccc(Cl)cc2Cl)cc1Cl	SULT2A1	enzyme activity, inhibitor, radiometric		pH 7.4	IC50	4.9 µM
O=C(OCc1ccccc1)c1ccc(OC(=O)c2ccc(OCc3ccccc3)cc2OCc2ccccc2)cc1O	DNA topoisomerase 1 (topA, Escherichia coli, UniProt P06612)	enzyme activity, inhibitor			IC50	> 1000 µM
O=C([O-])c1ccccc1-c1c2cc(Br)c(=O)cc-2oc2[c]([Hg+])c([O-])c(Br)cc12.[Na+].[Na+].[OH-]	Dual specificity protein phosphatase 5	phosphatase activity		30 min, without DTT, together with: pNPP	IC50	6.5 ± 0.2 µM
CCOc1c(S)cnn(-c2ccccc2)c1=O	srtA (Staphylococcus aureus, UniProt Q2FV99)	enzyme activity, inhibitor		with preincubation	IC50	35 µM
COc1cc([C@@H]2c3cc4c(cc3C[C@H]3COC(=O)[C@@H]32)OCO4)cc(OC)c1OC	tubulin alpha/beta (Leishmania infantum, UniProt A0A381MCS3+A4HTR0)	tubulin polymerization, inhibitor		37 °C	IC50	7.9 ± 0.3 µM
CC(=O)c1cc2c(cc1C)C(C)(C)C(C)CC2(C)C (stereo not shown)	Liver carboxylesterase (Sus scrofa, UniProt Q29550)	enzyme activity, inhibitor		with preincubation	IC50	114 µM
CC(C)C[C@H](NC(=O)[C@H](CO)NC(=O)[C@H](Cc1c[nH]c2ccccc12)NC(=O)[C@H](C)NC(=O)[C@H](CC(=O)O)NC(=O)[C@H](CC(C)C)NC(=O)CN)C(=O)O	Transcriptional regulator ComR (Streptococcus mutans serotype c, UniProt Q8DWI6)		Streptococcus mutans		IC50	31 µM
CC(C)C[C@H](NC(=O)OCc1ccccc1)C(=O)N[C@@H](Cc1c[nH]c2ccccc12)C(=O)N[C@@H](CC(C)C)C(=O)C(=O)Nc1ccccc1	Proteasome component C5/PSMB5 chymotrypsin-like site	enzyme activity in cells, inhibitor			IC50	0.0665 µM
CN[C@@](C)(C[18F])C(=O)O			SCID mouse U87 xenograft, spleen	30 min, post injection	tissue uptake	14 ± 2.5 %ID/g
CC(C)C[C@H](NC(=O)CNC(=O)[C@H](CC(C)C)NC(=O)[C@H](CC(C)C)NC(=O)[C@@H](N)Cc1ccccc1)C(=O)N[C@@H](CC(C)C)C(=O)N[C@H](C(=O)N[C@@H](Cc1c[nH]cn1)C(=O)N[C@H](C(=O)O)C(C)C)C(C)C	HLA class I histocompatibility antigen, A alpha chain, allele A*02:03 (Homo sapiens, UniProt P04439)	peptide binding, radiolabelled peptide competition		together with: radiolabelled standard peptide	IC50	0.0046 µM
Cc1cccc(-n2c(/C=C/c3cccnc3)nc3ccccc3c2=O)c1	RAD51 (Homo sapiens, UniProt Q06609)	DNA strand exchange (D-loop), inhibitor		30 min	IC50	27.3 µM
O=C1OC2(c3cc(Cl)c(O)cc3Oc3cc(O)c(Cl)cc32)c2ccccc21	Dual specificity protein phosphatase 5	phosphatase activity		30 min, 1 mM DTT, together with: pNPP	IC50	217 ± 4.8 µM
COP(=O)(OC)SCn1nnc2ccccc2c1=O	rat liver carboxylesterase	enzyme activity, inhibitor	rat, postnatal day 70, liver homogenate	together with: p-nitrophenyl valerate	IC50	0.337 µM
COc1ccc(C)cc1S(=O)(=O)Nc1cccnc1	ALPL	enzyme activity, inhibitor, luminescence		together with: CDP-star substrate, 100 mM DEA	IC50	1.78 µM
Clc1ccc(C[n+]2cc(-c3ccc4ccccc4n3)cc3ccccc32)cc1	virF (Shigella flexneri, UniProt P0A2T1)	reporter gene expression, inhibitor	Escherichia coli, virB-lacZ reporter strain	3 h, 37 °C, 6.2% DMSO, together with: 1 mM IPTG	IC50	26 µM
Cc1ccc2nc(N)[nH]c(=O)c2c1Sc1ccncc1	SHMT (Plasmodium falciparum, UniProt Q8I566)	enzyme activity, radiometric		20 min, 37 °C, together with: serine 0.2 mM, THF 1 mM	IC50	200 µM
CN1C(=O)[C@]23SS[C@@]1(C)C(=O)N2[C@H]1Nc2ccccc2[C@@]1([C@@]12c4ccccc4N[C@@H]1N1C(=O)[C@@]4(C)SS[C@]1(C(=O)N4C)[C@H]2O)[C@@H]3O	PRMT5 (Homo sapiens, UniProt O14744)	methyltransferase activity, inhibitor		together with: 1 µM [3H]SAM	IC50	> 10 µM

SMILES	target or system	assay	system	setting	measurement	result
Cc1cc(O)cc(C)c1-c1ccc(-c2c(C)cc(O)cc2C)[se]1	Estrogen receptor (ESR1, Homo sapiens, UniProt P03372)	antagonist	HEK293T	together with: estradiol 10 nM	IC50	0.425 µM
Cc1ccc(C2CC(NC=O)c3ccc4cccnc4c3N2)cc1 (stereo not shown)	ache (Electrophorus electricus, UniProt O42275)	enzyme activity, inhibitor, Ellman			IC50	208 µM
CN1[C@H]2CC[C@@H]1[C@@H](C(=O)N1CCCC1)[C@@H](c1ccc(I)cc1)C2	SLC6A2 (Homo sapiens, UniProt P23975)	transporter uptake, inhibitor, radiometric			IC50	0.797 µM
CC(C)C[C@H](NC(=O)N1CCOCC1)C(=O)N[C@H](/C=C/S(=O)(=O)c1ccccc1)CCc1ccccc1	Cathepsin S (CTSS, Homo sapiens, UniProt P25774)	enzyme activity, inhibitor, fluorescence		pH 5.5, with preincubation	IC50	0.0001 µM
NC(Cc1cc(O)c(O)cc1O)C(=O)O (racemic)	KDM4E (Homo sapiens, UniProt B2RXH2)	enzyme activity, inhibitor, fluorescence			IC50	5 µM
CCC(CC)COC(=O)[C@H](C)N[P@](=O)(OC[C@H]1O[C@@](C#N)(c2ccc3c(N)ncnn23)[C@H](O)[C@@H]1O)Oc1ccccc1	SLCO1B3 (Homo sapiens, UniProt Q9NPD5)	transport, inhibitor		10 (unit not given), pre-incubation, together with: cholecystokinin	IC50	5.5 ± 1.2 µM
CSc1scc2c1C(=O)C(=CN(C)C)CC2	DNA polymerase processivity factor, with UL54 polymerase (UL44, Human cytomegalovirus, UniProt P16790)	P54-UL44 interaction, inhibitor, fluorescence polarization		10 min preincubation	IC50	~20 µM
O=C(O)c1cc(-c2ccccc2Cl)n[nH]1	ALPL	enzyme activity, inhibitor, absorbance			IC50	> 100 µM
NCc1ccc(-c2ncc(OCC3CCNCC3)nc2-c2ccc(-c3ccoc3)cc2)cc1	Genome polyprotein NS2B-NS3 protease	inhibitor	Zika virus		IC50	0.2 µM
NCCCCOc1ccc(Cl)cc1C(=O)Nc1ccc([N+](=O)[O-])cc1Cl	Genome polyprotein, NS2B-NS3 interaction (dengue virus type 2, UniProt P29990)	NS2B-NS3 interaction, inhibitor, split luciferase complementation	dengue virus 2		IC50	3.1 µM
Oc1ccc(-c2ccc(Cl)cc2Cl)cc1Cl	Sult1a1 (Rattus norvegicus, UniProt P17988)	enzyme activity, inhibitor			IC50	57.7 µM
CC(C)c1ccc(-c2nc3cc4nc5ccccc5nc4cc3[nH]2)cc1	Genome polyprotein, protease (dengue virus type 2, UniProt P29990)	enzyme activity, inhibitor, fluorescence		pH 8.5	IC50	92.1 µM
O=C(O)c1ccccc1-c1c2ccc(=O)c([As]3SCCS3)c-2oc2c([As]3SCCS3)c(O)ccc12	PTPN1 (Homo sapiens, UniProt P18031, P87C)	enzyme activity, inhibitor		120 min pre-incubation, together with: pNPP substrate	IC50	~0.12 µM
CC(=O)c1ccc(-c2ccc(C(=O)N[C@@H](CC(C)C)C(=O)N[C@@H](CC(C)C)C(=O)N[C@@H](CC(C)C)C(=O)C(=O)Nc3cccc(C(C)=O)c3)o2)cc1	Proteasome component C5/PSMB5 chymotrypsin-like site	enzyme activity in cells, inhibitor			IC50	0.0253 µM
CCN1C(=Cc2ccc3ccccc3[n+]2CC)C=Cc2ccccc21	SLC22A2 (Homo sapiens, UniProt O15244)	[3H]MPP+ uptake, inhibitor	HEK293 stably expressing SLC22A2	10 min, room temperature, together with: 10 nM [3H]MPP+	IC50	~10 µM
NCc1ccc(-c2ncc(NCC3CCNCC3)nc2-c2ccc(-c3ccoc3)cc2)cc1F	Genome polyprotein NS2B-NS3 protease	inhibitor	Zika virus		IC50	5.3 µM
Oc1ccc(-c2ccc(Cl)cc2)c(Cl)c1	SULT2A1	enzyme activity, inhibitor, radiometric		pH 7.4	IC50	1.5 µM

Repeated from above:
SMILES	target or system	assay	system	setting	measurement	result
CC(=O)c1cc2c(cc1C)C(C)(C)C(C)CC2(C)C (stereo not shown)	Liver carboxylesterase (Sus scrofa, UniProt Q29550)	enzyme activity, inhibitor		with preincubation	IC50	114 µM
CSc1scc2c1C(=O)C(=CN(C)C)CC2	DNA polymerase processivity factor, with UL54 polymerase (UL44, Human cytomegalovirus, UniProt P16790)	P54-UL44 interaction, inhibitor, fluorescence polarization		10 min preincubation	IC50	~20 µM
